Published values from different studies.
Each line is one published result; not all experiments were run side by side.
Organism: Acinetobacter baumannii

| Compound | assay | system | setting | MIC |
| --- | --- | --- | --- | --- |
| CCCCCCCCCCCC[N+](C)(C)CCCCCCOc1cc(OCCCCCC[N+](C)(C)CCCCCCCCCCCC)cc(OCCCCCC[N+](C)(C)CCCCCCCCCCCC)c1.[Br-].[Br-].[Br-] | – | ATCC 17978 | – | 16 µM |
| CC(=O)NC[C@H]1CN(c2ccc(N3CCN(C(=O)CN)CC3)c(F)c2)C(=O)O1 | broth dilution | ATCC 19606 | – | inactive |
| CN[C@H](CC(C)C)C(=O)N[C@H]1C(=O)N[C@@H](CC(N)=O)C(=O)N[C@H]2C(=O)N[C@H]3C(=O)N[C@H](C(=O)N[C@H](C(=O)NCc4cn(CC(=O)N[C@H](C(=O)N[C@@H](CCN)C(=O)N[C@H]5CCNC(=O)[C@H]([C@@H](C)O)NC(=O)[C@H](CCN)NC(=O)[C@H](CCN)NC(=O)[C@H](CC(C)C)NC(=O)[C@@H](CC(C)C)NC(=O)[C@H](CCN)NC5=O)[C@@H](C)O)nn4)c4cc(O)cc(O)c4-c4cc3ccc4O)[C@H](O)c3ccc(c(Cl)c3)Oc3cc2cc(c3O[C@@H]2O[C@H](CO)[C@@H](O)[C@H](O)[C@H]2O[C@H]2C[C@](C)(N)[C@H](O)[C@H](C)O2)Oc2ccc(cc2Cl)[C@H]1O | broth microdilution | ATCC 17978, cation-adjusted Mueller-Hinton broth | 18 to 20 h, 37 °C, 0.002% polysorbate 80 | 128 µg/mL |
| COc1cc(C(=O)Nc2ccc(C(=O)O)cc2)ccc1NC(=O)c1ccc(NC(=O)[C@H](Cc2c[nH]nn2)NC(=O)c2ccc(NC(=O)/C(C)=C/c3ccc(O)cc3)cc2)cc1 | broth microdilution | ciprofloxacin-resistant | – | 32 µg/mL |
| CN[C@H](CC(C)C)C(=O)N[C@H]1C(=O)N[C@@H](CC(N)=O)C(=O)N[C@H]2C(=O)N[C@H]3C(=O)N[C@H](C(=O)N[C@H](C(=O)O)c4cc(O)cc(O)c4-c4cc3ccc4O)[C@H](O)c3ccc(c(Cl)c3)Oc3cc2cc(c3O[C@@H]2O[C@H](CO)[C@@H](O)[C@H](O)[C@H]2O[C@H]2C[C@](C)(NCc3ccc(OCc4cn(CCCCC(=O)N[C@H](C(=O)N[C@@H](CCN)C(=O)N[C@H]5CCNC(=O)[C@H]([C@@H](C)O)NC(=O)[C@H](CCN)NC(=O)[C@H](CCN)NC(=O)[C@H](CC(C)C)NC(=O)[C@@H](CC(C)C)NC(=O)[C@H](CCN)NC5=O)[C@@H](C)O)nn4)c(OC)c3)[C@H](O)[C@H](C)O2)Oc2ccc(cc2Cl)[C@H]1O | broth microdilution | ATCC 17978, cation-adjusted Mueller-Hinton broth | 18 to 20 h, 37 °C, 0.002% polysorbate 80 | 32 µg/mL |
| CC1(C)[C@H](NC(=O)/C(=N\OCC(=O)N2CCC(C(=O)O)C2)c2nsc(N)n2)C(=O)N1OS(=O)(=O)O (stereo partly shown) | agar dilution | 16-16 | – | > 64 µg/mL |
| COc1ccc2ccc(O)c(/C=N/[C@H]3CCCC[C@H]3/N=C/c3ccccc3O)c2c1 | bacterial growth, broth microdilution | carbapenem-resistant clinical isolate | – | > 40 µM |
| CCCCCCCC(=O)N[C@@H](CCN)C(=O)N[C@H](C(=O)N[C@@H](CCN)C(=O)N[C@H]1CCNC(=O)[C@H]([C@@H](C)O)NC(=O)[C@H](CCN)NC(=O)[C@H](CCN)NC(=O)[C@H](CC(C)C)NC(=O)[C@@H](Cc2ccccc2)NC(=O)[C@H](C)NC1=O)[C@@H](C)O | CLSI broth microdilution | 248-01-C.248, CAMHB | 20 h, 37 °C | > 512 µg/mL |
| COc1ccc2ccc(O)c(/C=N/[C@H]3CCCC[C@H]3/N=C/c3cccc(OC)c3O)c2c1 | bacterial growth, broth microdilution | carbapenem-resistant clinical isolate | – | > 40 µM |
| C#CCNC(=O)[C@H]1NC(=O)[C@H]2NC(=O)[C@H](NC(=O)[C@@H]3NC(=O)[C@H](CC(N)=O)NC(=O)[C@H](NC(=O)[C@@H](CC(C)C)NC)[C@H](O)c4ccc(c(Cl)c4)Oc4cc3cc(c4O[C@@H]3O[C@H](CO)[C@@H](O)[C@H](O)[C@H]3O[C@H]3C[C@](C)(N)[C@H](O)[C@H](C)O3)Oc3ccc(cc3Cl)[C@H]2O)c2ccc(O)c(c2)-c2c(O)cc(O)cc21 | broth microdilution | ATCC 17978, cation-adjusted Mueller-Hinton broth | 18 to 20 h, 37 °C, 0.002% polysorbate 80 | 128 µg/mL |
| CCCCCCCC(=O)N[C@@H](CCN)C(=O)N[C@H](C(=O)N[C@@H](CCN)C(=O)N[C@H]1CCNC(=O)[C@H]([C@@H](C)O)NC(=O)[C@H](C)NC(=O)[C@H](CCN)NC(=O)[C@H](CC(C)C)NC(=O)[C@@H](Cc2ccccc2)NC(=O)[C@H](CCN)NC1=O)[C@@H](C)O | CLSI broth microdilution | 248-01-C.248, CAMHB | 20 h, 37 °C | > 512 µg/mL |
| CC[C@H]1OC(=O)[C@H](C)[C@@H](OC(=O)Cc2ccc3c(c2)OCO3)[C@H](C)[C@@H](O[C@@H]2O[C@H](C)C[C@H](N(C)C)[C@H]2O)[C@](C)(OC)C[C@@H](C)C(=O)[C@H](C)[C@@H](O)[C@]1(C)O | – | DSM 30007 | together with: colistin sulfate at 0.5 x MIC | 0.125 µM |
| C=CCO/N=C(\C(=O)N[C@@H]1C(=O)N(OS(=O)(=O)O)C1(C)C)c1nsc(N)n1 | agar dilution | ATCC 19606 | – | 16 µg/mL |
| CCCCCCCC[N+](C)(C)CCCCCCCCOc1cc(OCCCCCCCC[N+](C)(C)CCCCCCCC)cc(OCCCCCCCC[N+](C)(C)CCCCCCCC)c1.[Br-].[Br-].[Br-] | – | ATCC 17978 | – | 2 µM |
| COc1c(NC(=O)c2ccc(NC(=O)[C@H](Cc3c[nH]nn3)NC(=O)c3ccc(NC(=O)/C(C)=C/c4ccc(O)cc4)cc3)cc2)ccc(C(=O)Nc2ccc(C(=O)O)c(O)c2)c1O | broth microdilution | ciprofloxacin-resistant | – | 8 µg/mL |
| C#CCO/N=C(\C(=O)N[C@@H]1C(=O)N(OS(=O)(=O)O)C1(C)C)c1nsc(N)n1 | agar dilution | 16-16 | – | > 64 µg/mL |

| Compound | assay | system | setting | MIC |
| --- | --- | --- | --- | --- |
| Cc1c(CN(C)C(=O)/C=C/c2cnc3c(c2)CC(N)C(=O)N3)oc2ccccc12 (stereo not shown) | broth microdilution | AR-0312 | – | 16 µg/mL |
| CCCCCCCC(=O)N[C@@H](C)C(=O)N[C@H](C(=O)N[C@@H](CCN)C(=O)N[C@H]1CCNC(=O)[C@H]([C@@H](C)O)NC(=O)[C@H](CCN)NC(=O)[C@H](CCN)NC(=O)[C@H](CC(C)C)NC(=O)[C@@H](Cc2ccccc2)NC(=O)[C@H](CCN)NC1=O)[C@@H](C)O | CLSI broth microdilution | 5075, CAMHB | 20 h, 37 °C | 256 µg/mL |
| C#CCNC(=O)C1(O/N=C(\C(=O)N[C@@H]2C(=O)N(OS(=O)(=O)O)C2(C)C)c2csc(N)n2)CC1 | agar dilution | 16-16 | – | 128 µg/mL |
| CCCCCCCCCC[N+](C)(C)CCCCCCCCOc1cc(OCCCCCCCC[N+](C)(C)CCCCCCCCCC)cc(OCCCCCCCC[N+](C)(C)CCCCCCCCCC)c1.[Br-].[Br-].[Br-] | – | ATCC 17978 | – | 8 µM |
| CC1(C)[C@H](NC(=O)/C(=N\OCC(=O)N2CCC[C@@H]2C(=O)O)c2nsc(N)n2)C(=O)N1OS(=O)(=O)O | agar dilution | 16-16 | – | > 64 µg/mL |
| CC[C@H]1OC(=O)[C@H](C)[C@@H](OC(=O)c2ccc(N)cc2)[C@H](C)[C@@H](O[C@@H]2O[C@H](C)C[C@H](N(C)C)[C@H]2O)[C@](C)(OC)C[C@@H](C)C(=O)[C@H](C)[C@@H](O)[C@]1(C)O | microbial growth | ATCC19606 | – | > 32 µg/mL |
| CCCCCCCCn1cc[n+](CCCCCCOc2cc(OCCCCCC[n+]3ccn(CCCCCCCC)c3)cc(OCCCCCC[n+]3ccn(CCCCCCCC)c3)c2)c1.[Br-].[Br-].[Br-] | – | ATCC 17978 | – | 1 µM |
| CC1(C)[C@H](NC(=O)/C(=N\OCc2c(Cl)cccc2Cl)c2nsc(N)n2)C(=O)N1OS(=O)(=O)O | agar dilution | 16-16 | – | 16 µg/mL |
| CCCCCCCC(=O)N[C@@H](CCN)C(=O)N[C@H](C(=O)N[C@@H](CN)C(=O)N[C@H]1CCNC(=O)[C@H]([C@@H](C)O)NC(=O)[C@H](CN)NC(=O)[C@H](CCN)NC(=O)[C@H]([C@@H](C)O)NC(=O)[C@@H](CC(C)C)NC(=O)[C@H](CCN)NC1=O)[C@@H](C)O | – | ATCC 19606, CAMHB | 20 h, 37 °C | 0.5 µg/mL |
| CC[C@H]1OC(=O)[C@H](C)[C@@H](OC(=O)Cc2cccc([N+](=O)[O-])c2)[C@H](C)[C@@H](O[C@@H]2O[C@H](C)C[C@H](N(C)C)[C@H]2O)[C@](C)(OC)C[C@@H](C)C(=O)[C@H](C)[C@@H](O)[C@]1(C)O | microbial growth | ATCC19606 | – | > 32 µg/mL |
| CCCCCCCC(=O)N[C@@H](CCN)C(=O)N[C@H](C(=O)N[C@@H](CN)C(=O)N[C@H]1CCNC(=O)[C@H]([C@@H](C)O)NC(=O)[C@H](CCCN)NC(=O)[C@H](CCN)NC(=O)[C@H]([C@@H](C)O)NC(=O)[C@@H](CC(C)C)NC(=O)[C@H](CCN)NC1=O)[C@@H](C)O | – | ATCC 17978, CAMHB | 20 h, 37 °C | 8 µg/mL |
| COc1cc(C(=O)O)ccc1NC(=O)c1ccc(NC(=O)c2ccc(NC(=O)[C@H](Cc3c[nH]nn3)NC(=O)c3ccc(NC(=O)/C(C)=C/c4ccc(O)cc4)cc3)cc2)c(OC)c1 | broth microdilution | ciprofloxacin-resistant | – | 16 µg/mL |
| CCCCCCCC(=O)N[C@@H](CCN)C(=O)N[C@H](C(=O)N[C@@H](CN)C(=O)N[C@H]1CCNC(=O)[C@H]([C@@H](C)O)NC(=O)[C@H](CCN)NC(=O)[C@H](CCCN)NC(=O)[C@H]([C@@H](C)O)NC(=O)[C@@H](CC(C)C)NC(=O)[C@H](CCN)NC1=O)[C@@H](C)O | – | ATCC 19606, CAMHB | 20 h, 37 °C | 0.5 µg/mL |
| CCCCCCCC(=O)N[C@@H](CCN)C(=O)N[C@H](C(=O)N[C@@H](CCN)C(=O)N[C@H]1CCNC(=O)[C@H]([C@@H](C)O)NC(=O)[C@H](CCN)NC(=O)[C@H](CCN)NC(=O)[C@H](CC(C)C)NC(=O)[C@@H](Cc2ccccc2)NC(=O)[C@H](CCN)NC1=O)[C@@H](C)O | broth microdilution | ATCC 19606 | 20 h, 37 °C | 0.25 µg/mL |
| CC[C@H]1OC(=O)[C@H](C)[C@@H](OC(=O)Cc2c(F)cccc2F)[C@H](C)[C@@H](O[C@@H]2O[C@H](C)C[C@H](N(C)C)[C@H]2O)[C@](C)(OC)C[C@@H](C)C(=O)[C@H](C)[C@@H](O)[C@]1(C)O | – | DSM 30007 | together with: colistin sulfate at 0.1 x MIC | 1 µM |

Some of these lines once more:
| Compound | assay | system | setting | MIC |
| --- | --- | --- | --- | --- |
| CN[C@H](CC(C)C)C(=O)N[C@H]1C(=O)N[C@@H](CC(N)=O)C(=O)N[C@H]2C(=O)N[C@H]3C(=O)N[C@H](C(=O)N[C@H](C(=O)NCc4cn(CC(=O)N[C@H](C(=O)N[C@@H](CCN)C(=O)N[C@H]5CCNC(=O)[C@H]([C@@H](C)O)NC(=O)[C@H](CCN)NC(=O)[C@H](CCN)NC(=O)[C@H](CC(C)C)NC(=O)[C@@H](CC(C)C)NC(=O)[C@H](CCN)NC5=O)[C@@H](C)O)nn4)c4cc(O)cc(O)c4-c4cc3ccc4O)[C@H](O)c3ccc(c(Cl)c3)Oc3cc2cc(c3O[C@@H]2O[C@H](CO)[C@@H](O)[C@H](O)[C@H]2O[C@H]2C[C@](C)(N)[C@H](O)[C@H](C)O2)Oc2ccc(cc2Cl)[C@H]1O | broth microdilution | ATCC 17978, cation-adjusted Mueller-Hinton broth | 18 to 20 h, 37 °C, 0.002% polysorbate 80 | 128 µg/mL |
| C#CCNC(=O)[C@H]1NC(=O)[C@H]2NC(=O)[C@H](NC(=O)[C@@H]3NC(=O)[C@H](CC(N)=O)NC(=O)[C@H](NC(=O)[C@@H](CC(C)C)NC)[C@H](O)c4ccc(c(Cl)c4)Oc4cc3cc(c4O[C@@H]3O[C@H](CO)[C@@H](O)[C@H](O)[C@H]3O[C@H]3C[C@](C)(N)[C@H](O)[C@H](C)O3)Oc3ccc(cc3Cl)[C@H]2O)c2ccc(O)c(c2)-c2c(O)cc(O)cc21 | broth microdilution | ATCC 17978, cation-adjusted Mueller-Hinton broth | 18 to 20 h, 37 °C, 0.002% polysorbate 80 | 128 µg/mL |
